Measured values collected from several papers.
Every numbered part comes from another study and shows a few of its results, in no order.

Series 1 — technique: protein-binding microarray; molecule type: double-stranded DNA, one strand shown; medium: in vitro; tested at: 250 nM; notes: 60-bp whole probe; added: salmon DNA 0.4 mg/ml; reference: random background probes; reading: higher = stronger binding; all sequences stand within: GCCTAGCAC … GTCTTGATTCGCTTGACGCTGCTG
Target: Interferon regulatory factor 7, full length, phosphomimetic (IRF7, Homo sapiens, UniProt Q92985, residues 1-503, S101K/S471D/S472D/S475D/S476D/S477D/S483D/S484D/S487D)
Residues (chain): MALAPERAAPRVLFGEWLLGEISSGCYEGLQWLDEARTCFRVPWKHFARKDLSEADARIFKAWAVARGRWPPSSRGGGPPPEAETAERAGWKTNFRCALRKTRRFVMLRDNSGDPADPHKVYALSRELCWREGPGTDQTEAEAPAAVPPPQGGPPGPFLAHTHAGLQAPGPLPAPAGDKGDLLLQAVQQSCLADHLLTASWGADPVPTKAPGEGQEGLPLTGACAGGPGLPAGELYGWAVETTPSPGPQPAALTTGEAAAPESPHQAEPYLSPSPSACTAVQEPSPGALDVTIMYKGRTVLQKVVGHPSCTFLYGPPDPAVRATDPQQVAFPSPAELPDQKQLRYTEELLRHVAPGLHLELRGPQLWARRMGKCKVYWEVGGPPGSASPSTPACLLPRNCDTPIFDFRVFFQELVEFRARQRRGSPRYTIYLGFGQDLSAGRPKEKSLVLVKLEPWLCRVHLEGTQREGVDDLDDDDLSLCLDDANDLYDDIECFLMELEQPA
Sequence | log fluorescence
GACGGTTGCGACACTGGGGACGTGCTA | -0.53 z-score
GACGGACTGGTTCTCGGGACGTGCTAG | 0.0249 z-score
CTCACCTCAGCCTCCCAAGTGTGCTAG | 0.324 z-score
CCACTGCAAAAACATCCTGGGTGCTAG | 0.125 z-score
GACGGTCTGGGGTATCGGGACGTGCTA | -0.461 z-score
AAGCTCCTATCTTATGATATAGTGCTA | 0.341 z-score
GACGGTCACGGTTTCGGGACGTGCTAG | 4.04 z-score
GACGGTTCCGGTTTCGGGAAGTGCTAG | 7.18 z-score
GACGGACTGTGACTGGGGACGTGCTAG | -0.428 z-score
TACAGGATGGTTTTCAGAGAGTGCTAG | -0.282 z-score
TTAGGATTGGACACTGGGTTAGTGCTA | -0.347 z-score
TTAGGTCTCCTTAACCTTTAGTGCTAG | -0.15 z-score
ATAAAAATCTTTGTTGGAGGGGTGCTA | -0.177 z-score
GACGGACTGCTACTCCTGACGTGCTAG | -0.604 z-score
ACCCATCTCCAGTAGCCTAGCGTGCTA | 0.234 z-score
TTAGGTTTCCTTTCCTTTTAGTGCTAG | 4.58 z-score
TCAGTTGTACTTTCTATCACTGTGCTA | 0.305 z-score
TCAAATCTCTCTTCACAACTGTGCTAG | 0.779 z-score
TTAGGTTGCGGTTTCGGTTAGTGCTAG | 9.02 z-score
CGCGCTTCTCGGCGGCGAAGGTGCTAG | 0.348 z-score
GACGGTATCGCCACTGGGGACGTGCTA | -0.56 z-score
GACGGACTGCATATCCTGACGTGCTAG | -0.393 z-score
GACGGTTTAGACTATCGGGACGTGCTA | 0.101 z-score
CTTGCCCACTTCTGTGACAGGTGCTAG | 1.42 z-score
GTGTATATATAATATATATTCGTGCTA | 0.325 z-score

Series 2 — technique: RNA Bind-n-Seq; molecule type: RNA; medium: in vitro; tested at: 365 nM; reference: no-protein control; reading: higher = stronger binding
Target: RNA binding protein fox-1 homolog 2, RRM domain, GST-SBP tag (RBFOX2, Homo sapiens, UniProt O43251-10, residues 100-194)
Notes: natural RNA segment, single round, ends assumed
All sequences stand within: GGGAGUUCUACAGUCCGACGAUC … UGGAAUUCUCGGGUGCCAA
Target sequence (chain): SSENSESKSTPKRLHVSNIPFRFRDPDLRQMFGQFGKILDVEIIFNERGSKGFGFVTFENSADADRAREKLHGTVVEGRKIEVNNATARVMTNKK
Sequence | RBNS enrichment (R)
CAAGAUGAGUUUUGAGCGUUGUAUUCCAAAGGCCUCAUCUGGAGCCUCGGGAAAGUCUGGUCCCACAUCUGCCCGCCCUUCCAGCCCUUCCCCAGCCCCUCCUCUUGUUU | 0.875
UAGAAAGCUCUUGCAUGCUUGAGUCCACCAUUGGGGGAAAUGACAGAAAACUGGACCUGAGGGCAUUAGGAACAUCCUACAGAGUUGUGUUUAGUGUCGUUUGCCAUGGU | 8.03
UCUCAGCCCCACCCUCACCCUCUGGCCAGGAUCCUACAAGGCUACAUCCCCUGCUGCUUGGUUGACCCCCCCAAAUCCAGGGUCACUGCUCAGCUCUGCUUAUAGCUAUA | 0.409
CUGGCAUCUCAGACAUGGUUCCUGCCUCACUUGUGGGAGCUGGACCAGCCUGGGUUUCAUCUCCCACAGUAAAGCUAAGUAAGCCCCACAGACCUUACUGCUACUGCUGC | 0.285
UGGGCUACUUGUGACUAGACUUUUAAACUUUGCUCUUUCAAGCAGAAGCCUGGUUUCUGGGAGAACACUGCACAGCGAUUUCUUUCCCAGGAUUUACACAACUUUAAAGG | 0.222
UCAUUGGACUAGUGCAGAGGCUUUAAGUAGUUUAAAAUGGGCUUUUGCUUUUCUAGGUCAUUAACGUUUUUUAUUUAGUUUCUUUAGCCAAUAGUGGCUGAGUUUCGCAC | 0.464
UCAUUGAAAUAAAAUACAGAGUCAAAUCGCUAUUGUUGUUUUAAUGAUCUGUUUUUAGCUGGAUGGUCUUUAUUACAAAGUAUUAGAUUUUUCUUCUAUUUAACGGAAAA | 0.346
AGAAAAACUGCCAAGUUGUUUGGCAAGUGAUUGUUCUGAAAUACCUUGCAAGAUACCGAUAUUCAAGCUGUUGACAUACUCGUUGCCUACUUUAACAACUGUCAGAGAAA | 0.42
AUAAGUAACAAGGAGCCAAAUGUUAAUCACUAAGACAUGGGGAAAAUGUCUGCAGGGCAUGUCAGAGACCUUUGCAGCAGUGCCUCCCAUCACAGGCCUGGAGGCCUAGG | 0.682
UGCAUUAAUACAUUACAAACAUGAAGAUGUUUGUAAAGUUUUGUUUUAGUCAUUUUCUUUGCAGUCACAUCAUUGUACCACCUUCAUUAUUGUAUAGAGCUGCUUCAAUU | 0.468
AAAAACAGAACCAGCAUACCCCCAGGACCCAGCUGUGCUGGGAGCCUCAGUGUCCUCACCUGUCAAGUGGGCAAGCCAUGCUGAUCCGCAGGGUAAGUUACUGGGAGUUU | 0.31
UAUAGUGAAGAAGAGUCAAGCGUCAGAUAUAUUCUCCCAGUUGAUCCCAAUAUCUGCCCUAAGUGAUUUUUGAGAACAGGGUUUCAUGUAUCCCAGCCAGCCUGGGUCUC | 0.971

Series 3 — technique: RNA Bind-n-Seq; molecule type: RNA; medium: in vitro; tested at: 1 µM; notes: whole 134-nt RNA, ends assumed; added: 150 mM KCl; reference: input library; reading: higher = stronger binding
Target: Ras GTPase-activating protein-binding protein 1, C-terminal RGG region (G3BP1, Homo sapiens, UniProt Q13283)
UniProt Q13283, sequence (whole entry, looked up): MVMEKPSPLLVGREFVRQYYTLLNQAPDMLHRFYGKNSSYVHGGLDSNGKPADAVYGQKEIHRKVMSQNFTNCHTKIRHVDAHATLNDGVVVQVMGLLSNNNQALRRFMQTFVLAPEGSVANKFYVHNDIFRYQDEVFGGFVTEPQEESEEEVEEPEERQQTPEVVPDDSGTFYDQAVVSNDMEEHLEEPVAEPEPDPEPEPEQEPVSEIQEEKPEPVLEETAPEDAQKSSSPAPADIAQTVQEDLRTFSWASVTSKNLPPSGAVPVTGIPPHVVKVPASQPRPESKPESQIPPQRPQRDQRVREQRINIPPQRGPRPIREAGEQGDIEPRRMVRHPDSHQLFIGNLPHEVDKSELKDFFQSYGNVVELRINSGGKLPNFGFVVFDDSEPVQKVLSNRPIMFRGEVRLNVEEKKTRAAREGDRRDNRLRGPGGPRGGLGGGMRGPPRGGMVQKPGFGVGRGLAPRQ
All sequences stand within: GGGAGUUCUACAGUCCGACGAUC … UGGAAUUCUCGGGUGUCAAGG
Sequence | log2 enrichment
CCUGUGCUACACAUCGUAUGUACCGAAUCGGGGAAAGGGGAAAAAAAGGGGUUUUUGGGGAAAGUAUUAUGUUACGCCGUUCGGAUCUGC | 0.75
UGGCCCUGGUGGCAUGCGGGGAGGAAGAGGUGGCCUCAUGGAUCGUGGUGGUCCCGGUGGAAGGUUCAGAGGUGGCCGUGGUGGAGACAG | 1.88
GUCCUGUGCUACACAUCGUAUGUACCGAAUCAAAUUUUUAAAUUUAAACCCCCCCAAAAAAGUAUUAUGUUACGCCGUUCGGAUCUGCAC | -0.619
AGUCCUGUGCUACACAUCGUAUGUACCGAAUCAAAUUUAAACCCAAAUUUUUUUAAAAAAGUAUUAUGUUACGCCGUUCGGAUCUGCACU | -1.31
GUCCUGUGCUACACAUCGUAUGUACCGAAUCGGGGUUUUUGGGUUUUUGGUUUUUGGGGAAAGUAUUAUGUUACGCCGUUCGGAUCUGCA | -0.8
CUCAAGUCCUGUGCUACACAUCGUAUGUACCGAAUCGGGAAAGGAAAGGAAAGGAAAGUAUUAUGUUACGCCGUUCGGAUCUGCACUUCC | -1.51
UGGGAGGUGGAUUUUGUUUAUUUUUUUAGCUCAUUUCCAGGGGUGGGAAUUUUUUUUUAAUAUGUGUCAUGAAUACAGUUGUUUUUGAAA | 2.9
UCAAGUCCUGUGCUACACAUCGUAUGUACCGAAUCGGGAGGGAAAGGGAAAGGGAAAGUAUUAUGUUACGCCGUUCGGAUCUGCACUUCC | 1.66
AAGUCCUGUGCUACACAUCGUAUGUACCGAAUCAAAUUUUUAAACCCAAAUUUAAAAAAGUAUUAUGUUACGCCGUUCGGAUCUGCACUU | -1.46
CCUCAAGUCCUGUGCUACACAUCGUAUGUACCGAAUCGGGUUGGUUGGUUGGGAAAGUAUUAUGUUACGCCGUUCGGAUCUGCACUUCCA | -1.02
CUCAAGUCCUGUGCUACACAUCGUAUGUACCGAAUCGGGGCCGGCCGGGCCGGAAAGUAUUAUGUUACGCCGUUCGGAUCUGCACUUCCA | -1.04
AGUCCUGUGCUACACAUCGUAUGUACCGAAUCGGUUUUUGGUUUUUGGUUUUUGGGGAAAGUAUUAUGUUACGCCGUUCGGAUCUGCACU | -1.61
AGUCCUGUGCUACACAUCGUAUGUACCGAAUCAAAUUUUUAAACCCAAACCCCCAAAAAAGUAUUAUGUUACGCCGUUCGGAUCUGCACU | -1
UCCUGUGCUACACAUCGUAUGUACCGAAUCGGGGAAAAAGGGGAAAAAAAGGGGAGGGGAAAGUAUUAUGUUACGCCGUUCGGAUCUGCA | 1.58

Series 4 — technique: RNA Bind-n-Seq; molecule type: RNA; medium: in vitro; tested at: 20 nM; notes: 6-mer, flanks averaged, single round; added: 150 mM LiCl; reference: input library; reading: higher = stronger binding
Target: TAR DNA-binding protein 43, full length, His tag (TARDBP, Homo sapiens, UniProt Q13148, residues 1-414)
Sequence | 6-mer enrichment (R)
AGGUAU | 1.02
CUUGCU | 0.97
CGGGCG | 1.06
GGAUAU | 0.95
AAGUUC | 0.838
ACUCUA | 0.852
ACCGUC | 0.84
UCAGUA | 0.885
CGAGUC | 0.881
AUGCCC | 1.03
CAAGUU | 0.9
CUUUUA | 1.12

Series 5 — technique: protein binding microarray; molecule type: double-stranded DNA, one strand shown; medium: in vitro; tested at: not given; reference: not given; reading: higher = stronger binding
Target: Histone acetyltransferase KAT6A, winged helix 1, GST fusion (KAT6A, Homo sapiens, UniProt Q92794, residues 1-85)
Notes: 8-mer, flanks averaged, mean of 2 arrays, mostly near background
Target sequence (chain): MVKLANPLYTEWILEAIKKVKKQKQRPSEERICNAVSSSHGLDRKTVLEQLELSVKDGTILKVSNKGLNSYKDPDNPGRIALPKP
Sequence | E-score
ATTTAAGG | -0.153
CAAATATA | -0.245
ATGCACCG | 0.0456
GACAGACC | -0.149
AATAGCTC | -0.1
ACCGCTGA | 0.122
CCAGCCGC | 0.318
ATCGCTCA | 0.107
AACACGCT | 0.0335
CGCGACTA | 0.299
AGCTAGCC | 0.0367
GTATTCTA | -0.0557
GATCTTGC | 0.00731
GGACGAAA | 0.0489
ATCCACAA | -0.217
ATGAACCA | -0.237
GAAGTAGC | 0.0067
CCTTAGAA | -0.203
AAAAGTGG | -0.154
CAACAGCC | 0.214
CGCTCCAG | 0.16
CTGCCCCA | -0.162
CCAAAGGG | -0.209
AAATATAT | -0.127
AATGGGCA | -0.219

Some of these lines once more (series 1):
Sequence | log fluorescence
GACGGTTGCGACACTGGGGACGTGCTA | -0.53 z-score
GACGGACTGGTTCTCGGGACGTGCTAG | 0.0249 z-score
CTCACCTCAGCCTCCCAAGTGTGCTAG | 0.324 z-score
CCACTGCAAAAACATCCTGGGTGCTAG | 0.125 z-score
GACGGTCTGGGGTATCGGGACGTGCTA | -0.461 z-score
AAGCTCCTATCTTATGATATAGTGCTA | 0.341 z-score
GACGGTCACGGTTTCGGGACGTGCTAG | 4.04 z-score
GACGGTTCCGGTTTCGGGAAGTGCTAG | 7.18 z-score
GACGGACTGTGACTGGGGACGTGCTAG | -0.428 z-score
TACAGGATGGTTTTCAGAGAGTGCTAG | -0.282 z-score
TTAGGATTGGACACTGGGTTAGTGCTA | -0.347 z-score
TTAGGTCTCCTTAACCTTTAGTGCTAG | -0.15 z-score
ATAAAAATCTTTGTTGGAGGGGTGCTA | -0.177 z-score
